Measurements collected from several papers.
Each numbered part is a random draw from the data of one study; scales do not carry over between parts. Positions count from the first letter of the parent shown.

Block 1
Target: Protein max, full length (MAX, Homo sapiens, UniProt P61244-2, residues 1-151)
Method: protein-binding microarray
Form: double-stranded DNA, one strand shown
Matrix: in vitro
Concentration: not given
Setting: k-mer, scored over probes, only values ≥0.25
Direction: higher = stronger binding
Strand	E-score
CCCTCCAC	0.255
AACCGCGT	0.356
CACGCAGG	0.297
ACATGTCT	0.266
CCATCACG	0.275
CTGTGCGC	0.267
GCATGACA	0.38
ATGCTCGC	0.277
AGCGTGCG	0.43
GCATGTCA	0.389
CGTGCCAA	0.365
AAGCGTGG	0.444
ACACACAT	0.349

Block 2
Target: Histone acetyltransferase KAT6A, winged helix 1, GST fusion (KAT6A, Homo sapiens, UniProt Q92794, residues 1-85)
Method: protein binding microarray
Form: double-stranded DNA, one strand shown
Matrix: in vitro
Concentration: not given
Setting: 8-mer, flanks averaged, mean of 2 arrays, mostly near background
Reference: not given
Direction: higher = stronger binding
Target sequence (chain): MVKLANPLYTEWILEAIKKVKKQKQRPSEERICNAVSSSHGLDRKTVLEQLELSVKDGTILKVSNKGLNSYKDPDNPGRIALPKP
Strand	E-score
GATACCCA	-0.105
CTAGGCTC	-0.135
AAACAACG	0.0447
TGGTACCA	0.00261
CAGGGACC	-0.0919
AGAGGTTA	-0.0462
CCAACTCC	-0.127
AATCTTGA	-0.195
CATATATA	-0.18
CGATGTGA	-0.0415
ATTTAATG	-0.0339
CGATCCAA	-0.0662
ACCGAAAG	-0.113
AGTAACTA	0.0268
AGAACGAG	-0.152

Block 3
Target: CCNF, cyclin fold, Cln2 fusion (human)
Method: yeast growth competition, sequencing
Matrix: yeast
Setting: strong parent motif
Reference: not given
Direction: higher = stronger binding
Starting sequence: E2F1 docking peptide (human); PPVKRRLDLETDH
Substitution	normalised enrichment score
PPVKRRLDLETYH [D12Y]	9.52
PPVIRRLDLETDH [K4I]	4.86
PPLKRRLDLETDH [V3L]	1.42
PPVKMRLDLETDH [R5M]	-0.635
PPVRRRLDLETDH [K4R]	7.83
PPVKRRRDLETDH [L7R]	0.0541
PPVKRRLKLETDH [D8K]	7.19

Further values, each from its own experiment
Molecule	target	test	system	setting	how to read	measurement	result
PhoQ, residues 284 288 289 292 302 303 GANMMA	PhoP, residues 12 14 15 18 19 AQALL (Escherichia coli, UniProt P23836)	Sort-seq, item: YFP reporter	E. coli	PhoQ-PhoP variant library, with: 10 µM Mg2+	reference: high Mg2+ state, higher = stronger signaling	fold induction	4.15

A few entries again (block 2):
Strand	E-score
CCAACTCC	-0.127
GATACCCA	-0.105
